{"data": "Published values collected from several papers", "note": "± marks the error that the study gave."}
{"SMILES": "Cc1cc(/C=C/C#N)cc(C)c1Nc1nc(Nc2ccc(C#N)cc2)ncc1N", "tested on": "HIV-1", "test": "viral replication, single-round infection", "system": "RT mutant K103N", "quantity": "EC50", "result": "0.7 ± 0.1 nM"}
{"SMILES": "O=C(NC1CCN(c2ncnc3[nH]cnc23)CC1)c1cccc(NS(=O)(=O)c2ccc(C(F)(F)F)cc2)c1", "tested on": "monkeypox virus E1/E12", "conditions": "0.01221 µM", "quantity": "inhibition", "result": "15%"}
{"SMILES": "Cc1ccc2c(n1)c(-c1cccc(S(C)(=O)=O)c1)c(C)n2C/C(F)=C/CN", "tested on": "strychnine-sensitive glycine receptor (rat)", "test": "radioligand binding", "conditions": "10 µM, rat", "quantity": "inhibition", "result": "-5%"}
{"SMILES": "CC1(C)SSC(C)(C)[C@@H](NC(=O)[C@@H](N)Cc2ccc(O)cc2)C(=O)NCC(=O)N[C@@H](Cc2ccccc2)C(=O)N[C@H]1C(=O)O", "test": "[3H]deltorphin II uptake, inhibitor", "system": "rabbit, cells", "conditions": "15 min, NaCl-containing medium", "quantity": "IC50", "result": "99200 ± 32500 nM"}
{"SMILES": "COCCCCCCN1CCn2cc(C(=O)NCc3ccc(F)cc3F)c(=O)c(O)c2C1=O", "tested on": "human immunodeficiency virus 1", "test": "single-round vector infection", "system": "integrase G118R", "quantity": "EC50", "result": "15.6 ± 4.1 nM"}
{"SMILES": "C=C(C)C[C@H](OC)[C@H](O)C(=O)N[C@@H](OC)[C@@H]1CC(=O)C(C)(C)[C@@H](C[C@H](O)[C@@H](C)[C@H]2Cc3c(C)c(O)cc(O)c3C(=O)O2)O1", "tested on": "H522-T1", "test": "cell growth or viability", "quantity": "IC50", "result": "0.8 nM"}
{"SMILES": "CC[C@H](C)[C@H](NC(=O)[C@H](CC(C)C)NC(=O)[C@H](CCCCN)NC(=O)[C@@H](N)CCCCN)C(=O)N[C@H](C(=O)N[C@@H](Cc1ccccc1)C(=O)N[C@H](C(=O)N1CCC[C@H]1C(=O)N[C@@H](CCCCN)C(=O)N[C@@H](CCCCN)C(=O)N[C@H](C(=O)N[C@@H](CCCNC(=N)N)C(=O)N[C@@H](CCC(=O)O)C(=O)N[C@@H](CCCCN)C(=O)N[C@@H](CCCCN)C(=O)N[C@@H](CCCCN)C(=O)N[C@@H](CCC(=O)O)C(=O)N[C@@H](CS)C(=O)N[C@@H](CC(C)C)C(=O)N[C@H](C(=O)O)C(C)C)[C@@H](C)O)[C@@H](C)CC)[C@@H](C)O", "tested on": "TTX-sensitive sodium channel (mouse)", "test": "resurgent sodium current, open-channel blocker, whole-cell patch clamp", "system": "mouse hippocampal CA3 neurons", "conditions": "200 µM intracellular, 22 °C, step to +30 mV, 10 ms, together with: repolarisation to -30 mV", "quantity": "decay time constant", "result": "5.9 ± 0.6 ms"}
{"SMILES": "CCCCCCCCCCCCCCCC(=O)N[C@@H](CCC(=O)NCCOCCOCCC(=O)NCCOCCOCCC(=O)NCCCC[C@H](NC(=O)[C@H](CC(=O)O)NC(=O)[C@H](CC(C)C)NC(=O)[C@H](Cc1ccc(O)cc1)NC(=O)[C@H](CCCCN)NC(=O)[C@H](CO)NC(=O)[C@H](Cc1ccc(O)cc1)NC(=O)[C@H](CC(=O)O)NC(=O)[C@H](CO)NC(=O)[C@@H](NC(=O)[C@H](Cc1ccccc1)NC(=O)[C@@H](NC(=O)CNC(=O)[C@H](CCC(N)=O)NC(=O)[C@@H](CO)NC(=O)[C@@H](N)Cc1c[nH]cn1)[C@@H](C)O)[C@@H](C)O)C(=O)N[C@@H](CCCNC(=N)N)C(=O)N[C@@H](CCCNC(=N)N)C(=O)N[C@@H](C)C(=O)N[C@@H](CCC(N)=O)C(=O)N[C@@H](CC(=O)O)C(=O)N[C@@H](Cc1ccccc1)C(=O)N[C@H](C(=O)N[C@@H](CCC(N)=O)C(=O)N[C@@H](Cc1c[nH]c2ccccc12)C(=O)N[C@@H](CC(C)C)C(=O)N[C@@H](CC(C)C)C(=O)N[C@@H](CC(N)=O)C(=O)N[C@H](C(=O)NCC(=O)NCC(=O)N1CCC[C@H]1C(=O)N[C@@H](CO)C(=O)N[C@@H](CO)C(=O)NCC(=O)N[C@@H](C)C(=O)N1CCC[C@H]1C(=O)N1CCC[C@H]1C(=O)N1CCC[C@H]1C(=O)N[C@@H](CO)C(N)=O)[C@@H](C)O)C(C)C)C(=O)O", "system": "Sprague-Dawley rat CCl4 model", "conditions": "dose not given", "quantity": "serum ALT and AST", "result": "decreased"}
{"SMILES": "O=C(NCc1ccc(F)cc1F)c1cn2c(c(O)c1=O)C(=O)N(CCCCCO)CC2", "tested on": "human immunodeficiency virus 1", "test": "single-round vector infection", "system": "integrase R263K", "quantity": "EC50", "result": "95.7 ± 12.7 nM"}
{"SMILES": "CC[C@H](C)[C@H](NC(=O)CNC(=O)[C@@H](NC(=O)[C@H](CCCNC(=N)N)NC(=O)[C@H](CO)NC(=O)[C@H](Cc1c[nH]cn1)NC(=O)[C@H](CCCNC(=N)N)NC(=O)[C@H](CS)NC(=O)CNC(=O)[C@@H](NC(=O)[C@H](CCCNC(=N)N)NC(=O)[C@H](Cc1ccccc1)NC(=O)[C@H](Cc1c[nH]cn1)NC(=O)[C@@H](NC(=O)[C@H](Cc1ccccc1)NC(=O)[C@H](CC(C)C)NC(=O)[C@H](CC(C)C)NC(=O)[C@H](CCC(N)=O)NC(=O)[C@H](CCC(N)=O)NC(=O)[C@H](CC(C)C)NC(=O)[C@@H](NC(=O)[C@H](CCCNC(=N)N)NC(=O)[C@@H](NC(=O)[C@H](CC(C)C)NC(=O)[C@H](C)NC(=O)[C@H](CCC(=O)O)NC(=O)[C@@H](NC(=O)CNC(=O)[C@@H](NC(=O)[C@H](Cc1c[nH]c2ccccc12)NC(=O)[C@@H](NC(=O)[C@@H](N)CC(=O)O)[C@@H](C)O)[C@@H](C)O)C(C)C)[C@@H](C)CC)[C@@H](C)CC)[C@@H](C)CC)[C@@H](C)CC)[C@@H](C)CC)C(=O)N[C@H](C(=O)N[C@@H](CCC(N)=O)C(=O)N[C@@H](CCC(N)=O)C(=O)N[C@@H](CCCNC(=N)N)C(=O)N[C@@H](CCCNC(=N)N)C(=O)N[C@H](C(=O)N[C@@H](CCCNC(=N)N)C(=O)N[C@@H](CC(N)=O)C(=O)NCC(=O)N[C@@H](C)C(=O)N[C@@H](CO)C(=O)N[C@@H](CCCCN)C(=O)N[C@@H](CO)C(=O)O)[C@@H](C)O)[C@@H](C)CC", "test": "JC-1 flow cytometry", "system": "purified mouse mitochondria", "conditions": "1 µM, 1 min", "quantity": "low membrane potential mitochondria", "result": "25%"}
{"SMILES": "CC[C@H](C)[C@H](NC(=O)[C@H](CCCCN)NC(=O)[C@H](CCCCN)NC(=O)[C@H](CC(C)C)NC(=O)[C@H](Cc1c[nH]c2ccccc12)NC(=O)CN)C(=O)NCC(=O)N[C@@H](CCCCN)C(=O)N[C@@H](CCCCN)C(=O)N[C@H](C(=O)N[C@@H](CCC(=O)O)C(=O)N[C@@H](CCCNC(=N)N)C(=O)N[C@H](C(=O)NCC(=O)N[C@@H](CCC(N)=O)C(=O)N[C@@H](Cc1c[nH]cn1)C(=O)N[C@H](C(=O)N[C@@H](CCCNC(=N)N)C(=O)N[C@@H](CC(=O)O)C(=O)N[C@@H](C)C(=O)N[C@H](C(=O)N[C@H](C(=O)N[C@@H](CCC(N)=O)C(=O)N[C@H](C(=O)N[C@H](C(=O)NCC(=O)N[C@H](C(=O)N[C@@H](C)C(=O)N[C@@H](CCC(N)=O)C(=O)N[C@@H](CCC(N)=O)C(=O)N[C@@H](C)C(=O)N[C@@H](C)C(=O)N[C@@H](CC(N)=O)C(=O)N[C@H](C(=O)N[C@@H](C)C(=O)N[C@@H](C)C(=O)N[C@H](C(=O)N[C@@H](CC(C)C)C(=O)N[C@@H](CCCCN)C(N)=O)[C@@H](C)O)C(C)C)C(C)C)[C@@H](C)CC)[C@@H](C)O)[C@@H](C)CC)[C@@H](C)O)[C@@H](C)O)C(C)C)[C@@H](C)CC", "tested on": "Pseudomonas aeruginosa", "system": "ATCC 27853, CAMHB with 10% mouse serum", "quantity": "MIC", "result": "128 µg/mL"}
{"SMILES": "Nc1ncnc2c1ncn2C1CCC(OC(C(=O)O)P(=O)(O)O)C1 (racemic)", "tested on": "HIV-1 reverse transcriptase K70Q", "test": "enzyme activity, inhibitor", "conditions": "together with: poly(rU)·oligo(dA), [3H]dATP", "how to read": "reference: mutant over wild type", "quantity": "fold resistance", "result": "3.7 fold"}
{"SMILES": "CC(C)N1CCn2cc(C(=O)NCc3ccc(F)cc3F)c(=O)c(O)c2C1=O", "tested on": "human immunodeficiency virus 1", "test": "single-round vector infection", "system": "integrase N155H", "quantity": "EC50", "result": "3.6 ± 0.9 nM"}
{"SMILES": "CC[C@H](C)[C@@H]1NC(=O)[C@H](CC(=O)O)NC(=O)[C@H]([C@@H](C)O)NC(=O)[C@@H]2CSSC[C@@H]3NC(=O)[C@H](CC(C)C)NC(=O)[C@H](CC(N)=O)NC(=O)[C@H](CC(C)C)NC(=O)[C@H](CCCNC(=N)N)NC(=O)[C@H](Cc4ccc(O)cc4)NC(=O)[C@H](CCCCN)NC(=O)[C@H](CCSC)NC(=O)[C@H](CO)NC(=O)[C@H]([C@@H](C)O)NC(=O)[C@H](CCCNC(=N)N)NC(=O)[C@H](CSSC[C@H](NC(=O)[C@H]([C@@H](C)O)NC(=O)[C@H](CCCCN)NC(=O)[C@H](CCCNC(=N)N)NC3=O)C(=O)NCC(=O)N[C@@H](CO)C(=O)N[C@H](C(=O)O)CSSC[C@H](NC(=O)[C@@H](NC(=O)[C@@H](N)CCCNC(=N)N)[C@@H](C)O)C(=O)N[C@@H](CCCCN)C(=O)N[C@@H](CC(=O)O)C(=O)N[C@@H](CC(C)C)C(=O)N[C@@H]([C@@H](C)CC)C(=O)N3CCC[C@H]3C(=O)N[C@@H](C(C)C)C(=O)N[C@@H](CO)C(=O)N[C@@H](CCC(=O)O)C(=O)N2)NC(=O)[C@H](CCCNC(=N)N)NC1=O", "tested on": "KcsA-Shaker chimera channel", "test": "two-electrode voltage clamp", "system": "Xenopus oocytes", "conditions": "30 nM, after TEA washout", "quantity": "association time constant", "result": "27 ± 3 s"}
{"SMILES": "COCCN1CCn2cc(C(=O)NCc3ccc(F)cc3F)c(=O)c(O)c2C1=O", "tested on": "human immunodeficiency virus 1", "test": "single-round vector infection", "system": "integrase G118R", "quantity": "EC50", "result": "15.8 ± 2.2 nM"}
{"SMILES": "Cc1cc(/C=C/C#N)cc(C)c1-n1cnc2cnc(Nc3ccc(C#N)cc3)nc21", "tested on": "HIV-1", "test": "viral replication, single-round infection", "system": "RT mutant D67E", "quantity": "EC50", "result": "1.1 ± 0.4 nM"}
{"note": "Repeated from above:"}
{"SMILES": "COCCCCCCN1CCn2cc(C(=O)NCc3ccc(F)cc3F)c(=O)c(O)c2C1=O", "tested on": "human immunodeficiency virus 1", "test": "single-round vector infection", "system": "integrase G118R", "quantity": "EC50", "result": "15.6 ± 4.1 nM"}
